Experimental data collected from several papers.
Lines come from different studies, so protocols differ. pIC50: −log10 of the molar value.
GBA1 R534H: Lysosomal acid glucosylceramidase (GBA1, Homo sapiens, UniProt P04062, R534H)
Chain of UniProt P04062 (whole entry, unmodified, looked up): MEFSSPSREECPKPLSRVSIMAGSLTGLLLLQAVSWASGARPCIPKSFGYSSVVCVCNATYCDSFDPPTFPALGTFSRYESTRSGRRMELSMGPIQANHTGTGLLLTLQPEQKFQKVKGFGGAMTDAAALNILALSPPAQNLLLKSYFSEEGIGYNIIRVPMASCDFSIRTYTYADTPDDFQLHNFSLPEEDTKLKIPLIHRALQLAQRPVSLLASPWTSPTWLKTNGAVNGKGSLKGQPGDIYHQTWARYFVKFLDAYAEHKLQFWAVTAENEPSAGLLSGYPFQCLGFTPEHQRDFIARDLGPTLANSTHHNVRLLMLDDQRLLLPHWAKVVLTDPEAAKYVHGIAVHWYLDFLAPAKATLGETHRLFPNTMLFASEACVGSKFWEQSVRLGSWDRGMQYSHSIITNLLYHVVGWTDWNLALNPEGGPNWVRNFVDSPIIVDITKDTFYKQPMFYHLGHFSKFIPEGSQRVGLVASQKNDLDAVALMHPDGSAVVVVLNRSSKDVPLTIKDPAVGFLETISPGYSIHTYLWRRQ

For N=C(N)NCCC[C@@H]1NC(=O)[C@H](CO)NC(=O)[C@@H](NC(=O)[C@H](CO)NC(=O)[C@H](CO)NC(=O)[C@H](Cc2c[nH]c3ccccc23)NC(=O)CNC(=O)[C@H](CO)NC(=O)[C@@H](N)Cc2c[nH]c3ccccc23)CSSC[C@@H](C(=O)NCC(=O)O)NC(=O)[C@H](CO)NC1=O, the Cmax was 2220 ng/mL (patients, plasma; intravenous, 5 mg/kg, thrice weekly, geometric mean).
CCCCCCCCOCCCCCN1C[C@H](O)[C@@H](O)[C@H](O)[C@@H]1CO gave a pIC50 of 4.82 (GBA1 R534H; inhibitor, 4MU-β-D-glucopyranoside; together with: 4MU-β-D-glucopyranoside).
CCCCCCCOc1ccc(CC[C@](N)(CO)COP(=O)(O)O)cc1C(F)(F)F has a Cmax of 7.28 ng/mL (healthy human males, plasma; 0.5 mg, day 21).
OCCCN1CC[C@@H]2C[C@H]1c1cc(-c3ccc(C(F)(F)F)cc3)ccc12 has a Cmax of 10900 ng/mL (brain; ip, concentration not given).
With CC(C)C[C@H](NC(=O)[C@H](CCCN)NC(=O)CNC(=O)[C@@H](NC(=O)[C@H](C)NC(=O)[C@@H]1CSCSC[C@H](NC(=O)CC[C@H](N)C(=O)O)C(=O)N[C@@H](CC(N)=O)C(=O)N[C@@H]([C@@H](C)O)C(=O)N[C@@H](C)C(=O)N[C@@H]([C@@H](C)O)C(=O)N1)[C@@H](C)O)C(=O)N[C@@H](C)C(=O)N[C@@H](CCC(=O)O)C(=O)N[C@@](C)(Cc1ccccc1)C(=O)N[C@@H](CC(C)C)C(=O)N[C@H](C(=O)N[C@@H](CCCNC(=N)N)C(=O)N[C@@H](CO)C(=O)N[C@@H](CO)C(=O)N[C@@H](CC(N)=O)C(=O)N(C)[C@@H](CC(N)=O)C(=O)N[C@@H](Cc1ccccc1)C(=O)NCC(=O)N1CCC[C@H]1C(=O)N[C@@H](CCCCNC(=O)CC[C@H](NC(=O)CC[C@H](NC(=O)CCCCCCCCCCCCCCCCCCC(=O)O)C(=O)O)C(=O)O)C(=O)N[C@@H](CC(C)C)C(=O)N1CCC[C@H]1C(=O)N1CCC[C@H]1C(=O)N[C@H](C(=O)N[C@@H](CCC(=O)O)C(=O)N[C@H](C(=O)NCC(=O)N[C@@H](CO)C(=O)N[C@@H](CC(N)=O)C(=O)N[C@H](C(=O)N[C@@H](Cc1ccc(O)cc1)C(N)=O)[C@@H](C)O)C(C)C)[C@@H](C)O)C(C)C the Cmax was 344 ng/mL (healthy human, plasma; subcutaneous, 4 mg single dose, geometric LS mean).
The Cmax of COCC1CN(C2CCN(c3cc(OC)c(Nc4ncc(Br)c(Nc5ccc6c(c5P(C)(C)=O)OCCO6)n4)cc3C)CC2)C1 is reported as 478 ng/mL (EGFR-mutant NSCLC patients, plasma; oral, 60 mg single dose, geometric mean).
CC1(C)CC[C@]2(NC(=O)C(C)(F)F)CC[C@]3(C)[C@H](C(=O)C=C4[C@@]5(C)C=C(C#N)C(=O)C(C)(C)[C@@H]5CC[C@]43C)[C@@H]2C1 has a Cmax of 19.9 ng/mL (human, plasma; oral, dose not given, geometric least-squares mean, together with: efavirenz).
OC[C@H]1N[C@H](CCCCCCOCC23CC4CC(CC(C4)C2)C3)[C@H](O)[C@@H](O)[C@@H]1O gave a pIC50 of 7.15 (GBA1 R534H; inhibitor, 4MU-β-D-glucopyranoside; together with: 4MU-β-D-glucopyranoside).
The Cmax of COc1cc2nccc(Oc3ccc(NC(=O)C4(C(=O)Nc5ccc(F)cc5)CC4)cc3)c2cc1OC is reported as 468 ng/mL (male patients, monotherapy, plasma; oral, 60 mg once daily).
The relative translation of CC1CS(=O)(=O)CCN1/N=C/c1ccc([N+](=O)[O-])o1 (centres unmarked) is reported as 105% (Trypanosoma cruzi; reporter mRNA translation, inhibitor, item: capped polyadenylated Renilla luciferase mRNA; cell-free extract; concentration not given; baseline: control RNA).
C=C[C@]1(C)C[C@@H](OC(=O)CSc2ccc(NC(=O)c3ccco3)cc2)[C@]2(C)[C@H](C)CC[C@]3(CCC(=O)[C@H]32)[C@@H](C)[C@@H]1O has a Cmax of 5790 ng/mL (M. gallisepticum-infected chickens, plasma; intramuscular, 40 mg/kg single dose).
CNCc1ccc(-c2cc(=O)c3ccc4[nH]c(C(F)(F)F)nc4c3o2)cc1 gave a Cmax of 90.8 ng/mL (ICR mice, plasma; oral, 5 mg/kg).
COC1CN([C@H]2CC[C@H]([C@@]3(C)Oc4c(Cl)cc(C(=O)NCc5c(SC)cc(C)[nH]c5=O)c(C)c4O3)CC2)C1 has a Cmax of 1090 ng/mL (female CB17 SCID mice, KARPAS-422 xenograft, plasma; 25 mg/kg, day 1).
The relative translation of COc1cccc(Nc2nc(NCC3CCCO3)c3ccccc3n2)c1.Cl (centres unmarked) is reported as 79.9% (Trypanosoma cruzi; reporter mRNA translation, inhibitor, item: capped polyadenylated Renilla luciferase mRNA; cell-free extract; concentration not given; baseline: control RNA).

Some of these lines once more:
OCCCN1CC[C@@H]2C[C@H]1c1cc(-c3ccc(C(F)(F)F)cc3)ccc12 has a Cmax of 10900 ng/mL (brain; ip, concentration not given).
